Published values from different studies.
Each line is one published result; not all experiments were run side by side. ± gives the spread as reported.
Cell line: MDA-MB-231

SMILES	assay	setting	IC50
Nc1cccc[n+]1Cc1cccc(C[n+]2ccccc2N)c1	cell growth or viability, MTT	24 h	524 µM
CC12CCC3c4ccc(OCCOc5no[n+]([O-])c5S(=O)(=O)c5ccccc5)cc4CCC3C1CCC2=O (centres unmarked)	cell growth or viability, MTT	48 h	0.311 µM
C[C@@H]1CC[C@@H]([C@](O)(CNCc2cccc(F)c2)COCc2ccccc2)[C@H](OCc2ccccc2)C1	cell growth or viability, MTT	72 h	3.9 µM
CCn1cc[n+](CC)[c]1[Au-][Cl]	cell growth or viability, crystal violet	96 h	6.2 µM
CCCCCCCCCCCCCCCOC(=O)/C=C/c1cc(O)c(O)c(OC)c1	cell viability, MTT	48 h, serum-free medium	4.1 ± 0.3 µg/mL
CC(C)c1cccc(C(C)C)c1[N+]#[C][Pt-]([Cl])([Cl])=[C](Nc1cccc(CN[C](Nc2c(C(C)C)cccc2C(C)C)=[Au][Cl])c1)Nc1c(C(C)C)cccc1C(C)C	cell growth or viability	–	> 100 µM
CCCCCCCCCCCCCCCOC(=O)/C=C/c1ccc(OC)c(OC)c1	cell viability, MTT	48 h, serum-free medium	39.4 ± 4.1 µg/mL
N#C[CH2][Pd]1[O]c2ccc(Br)cc2C=Nc2cccnc2[N]1Cc1ccccc1	cell growth or viability, MTT	48 h	27.5 µM
Cc1ccc(S(=O)(=O)[O][Re-2]2(=[C]=O)(=[C]=O)(=[C]=O)[n+]3ccc(-c4ccccc4)c4ccc5c(-c6ccccc6)cc[n+]2c5c43)cc1	cell growth or viability, resazurin	72 h	1.27 µM
Cc1cc(C)c([N+]#[C][Pd-]([Cl])([Cl])=[C](Nc2cccc(CN[C](NC(C)(C)C)=[Au][Cl])c2)Nc2c(C)cc(C)cc2C)c(C)c1	cell growth or viability	–	> 100 µM
COc1ccc(COC[C@](O)(CNCc2ccc(F)cc2)[C@@H]2CC[C@@H](C)C[C@H]2OCc2ccc(OC)cc2)cc1	cell growth or viability, MTT	72 h	3.2 µM
C=CC(OC(C)=O)c1ccccc1 (centres unmarked)	MTT	24 h	> 50 µM
CC/C(=C(\c1ccccc1)c1ccc(OCCN(C)CCCCCCC(=O)NCCc2c[nH]c3ccc(OC)cc23)cc1)c1ccccc1	cell survival, MTT	day 9, dosed days 2, 4, 7	5.3 µM
CC(=O)[C@@H]1CCCN1C(=O)[C@@H]1CCCN1C(=O)[C@H](Cc1ccccc1)NC(=O)OC(C)(C)C	cell growth or viability, SRB	–	55 µM
C[C@]12CC/C(=N\OCCN3CCOCC3)C=C1CCC1C2CC[C@]2(C)/C(=C/c3ccccn3)CCC12 (some centres unmarked)	cell growth or viability, MTT	72 h	26.8 µM
C#CCOC(=O)C(CC)C1CCC(C)C(C(C)C(O)C(C)C(=O)C(CC)C2OC3(C=CC(O)C4(CCC(C)(C5CCC(O)(CC)C(C)O5)O4)O3)C(C)CC2C)O1 (centres unmarked)	cell growth or viability, MTT	72 h	> 10 µM
COc1ccc(/C(=C(/CCn2cc(CN3C(=O)C(=O)c4ccccc43)nn2)c2ccccc2)c2ccccc2)cc1	cell growth or viability, MTT	–	52.3 µM
CN[C@@H](C)C(=O)N[C@H]1CN(C(=O)Cc2ccccc2)CC[C@H]2CC[C@@H](C(=O)NCc3ccc(C(C)C)cc3)N2C1=O	cell growth or viability	96 h	0.705 µM
Cc1cc(C#N)cc(C)c1Oc1cc(Nc2ccc(C#N)cn2)nc2ccncc12	–	48 h	> 127 µM
CC(C)Cc1ccc(C(C)C(=O)[O][Re-2]2(=[C]=O)(=[C]=O)(=[C]=O)[n+]3ccc(-c4ccccc4)c4ccc5c(-c6ccccc6)cc[n+]2c5c43)cc1 (racemic)	cell growth or viability, resazurin	72 h	1.06 µM

SMILES	assay	setting	IC50
CC12CCC3c4ccc(Oc5no[n+]([O-])c5S(=O)(=O)c5ccccc5)c(Br)c4CCC3C1CCC2O (centres unmarked)	cell growth or viability, MTT	48 h	0.078 µM
CC(C)c1cccc(C(C)C)c1[N+]#[C][Pt-]([Cl])([Cl])=[C](Nc1cccc(CN[C](NC(C)(C)C)=[Au][Cl])c1)Nc1c(C(C)C)cccc1C(C)C	cell growth or viability	–	> 100 µM
CN[C@@H](C)C(=O)N[C@H]1CN(C(=O)Cc2ccccc2)CC[C@H]2CC[C@@H](C(=O)NCc3ccc(Br)cc3)N2C1=O	cell growth or viability	96 h	0.046 µM
CCN(CC)CCO/N=C1/C=C2CCC3C(CC[C@]4(C)/C(=C/c5ccccn5)CCC34)[C@@]2(C)CC1 (some centres unmarked)	cell growth or viability, MTT	72 h	> 100 µM
COC(=O)C1CCCN1C(=O)C(Cc1ccccc1)N(C)C(=O)CC(O)C(CC(C)C)NC(=O)C(CC(C)C)N(C)C(=O)C(CC(C)C)NC(=O)C(O)C(C)C (centres unmarked)	cell growth or viability, MTT	48 h	40 µM
CN(C)C(=S)N(C)N=Cc1ccccc1SSc1ccccc1C=NN(C)C(=S)N(C)C	cell growth or viability, MTT	72 h	0.33 µM
COc1ccccc1/C=N/NC(=O)c1cc2cc(Nc3nccc(-c4cccnc4)n3)ccc2[nH]1	cell growth or viability, MTT	48 h	8.88 µM
CC(C)c1cccc(C(C)C)c1[N+]#[C][Pt-]([Cl])([Cl])=[C](Nc1ccc(CN[C](Nc2c(C(C)C)cccc2C(C)C)=[Au][Cl])cc1)Nc1c(C(C)C)cccc1C(C)C	cell growth or viability	–	> 100 µM
COc1c(C)c(OC(=O)c2ccccc2)c(C)c(OC(=O)c2ccccc2)c1C(=O)/C=C/c1ccccc1	cell growth or viability, SRB	72 h	> 50 µM
C[C@@H]1CC[C@@H]([C@](O)(CNCc2ccccc2F)COCc2ccccc2)[C@H](OCc2ccccc2)C1	cell growth or viability, MTT	72 h	2.9 µM
Cc1cc(C=O)cc(C)c1Oc1cc(Nc2ccc(C#N)cn2)nc2cnccc12	–	48 h	74 ± 7.3 µM
O=C(O)CNc1nc(NNC(=O)c2ccc(Nc3nc(Nc4ccc(C(=O)NNc5nc(NCC(=O)O)nc(N6CCOCC6)n5)cc4)nc(Nc4ccc(C(=O)NNc5nc(NCC(=O)O)nc(N6CCOCC6)n5)cc4)n3)cc2)nc(N2CCOCC2)n1	cell growth or viability, MTT	72 h	0.0837 µM
Oc1ccc2c(c1)OCc1c-2oc2cc3c(cc12)OCO3	cell growth or viability, MTT	72 h	25.4 µM
CN[C@@H](C)C(=O)N[C@H]1CN(C(=O)Cc2ccccc2)CC[C@H]2CC[C@@H](C(=O)NCc3ccccc3Cl)N2C1=O	cell growth or viability	96 h	0.545 µM
O=[C]=[Re-2]1(=[C]=O)(=[C]=O)([O]S(=O)(=O)c2ccc3ccccc3c2)[n+]2ccc(-c3ccccc3)c3ccc4c(-c5ccccc5)cc[n+]1c4c32	cell growth or viability, resazurin	72 h	1.08 µM
C=C[CH2][Pd-]([Cl])[Cl].CC(C)c1cccc(C(C)C)c1-n1c[n+](-c2c(C(C)C)cccc2C(C)C)c2c1-c1cccc3cccc-2c13	cell growth or viability, MTT	72 h	4 µM
COC(=O)[C@@H](NC(=O)[C@@H](NC(=O)OC(C)(C)C)C(C)C)C(C)C	cell growth or viability, SRB	–	7 µM
COc1cc(/C=C/C(=O)NCCCCCCNC2=C3C[C@@H](C)C[C@H](OC)[C@H](O)[C@@H](C)/C=C(\C)[C@H](OC(N)=O)[C@@H](OC)/C=C\C=C(/C)C(=O)NC(=CC2=O)C3=O)ccc1O	cell growth or viability, MTT	72 h	0.27 µM
CN[C@@H](C)C(=O)N[C@H]1CN(C(=O)Cc2ccccc2)CC[C@H]2CC[C@@H](C(=O)NCc3ccc([N+](=O)[O-])cc3)N2C1=O	cell growth or viability	96 h	0.292 µM
COc1ccc(CNC[C@](O)(COCc2ccccc2)[C@@H]2CC[C@@H](C)C[C@H]2OCc2ccccc2)cc1	cell growth or viability, MTT	72 h	3.2 µM

SMILES	assay	setting	IC50
COc1cc(/C=C/C(=O)/C=C/c2cn(-c3ccccc3)nc2C(=O)O)cc(OC)c1O	cell growth	72 h	> 25 µM
COc1c(C)c(O)c(C(=O)C=Cc2ccccc2)c(OC)c1C	cell growth or viability, SRB	72 h	26.2 µM
Cc1ccc(C(C)C)cc1.F[P-](F)(F)(F)(F)F.O=C(N=P(c1ccccc1)(c1ccccc1)c1ccccc1)c1ccccn1.[Cl-].[Ru+2]	cell growth or viability, MTT	24 h	4.91 µM
COc1ccc(/C=C/C(=O)/C=C/c2cn(-c3ccccc3)nc2C(=O)O)cc1OC	cell growth	72 h	19.3 ± 2.61 µM
c1ccc(-c2nn(-c3nc4ccccc4s3)[n+](-c3ccccc3)n2)cc1	cell growth or viability, resazurin	72 h	21 µM
Cc1cc(-c2ccccc2)c2ccc3c(-c4ccccc4)cc(C)[n+]4c3c2[n+]1[Re-2]4(=[C]=O)(=[C]=O)(=[C]=O)[O]S(=O)(=O)c1cccc2ccccc12	cell growth or viability, resazurin	72 h	0.716 µM
CCC1C=CC2CCN(C(=O)C3CCC4C=CC5(CCCN5C(=O)C(Cc5ccccc5Cl)NC(C)=O)C(=O)N43)C2C(=O)N1CC(=O)OC (centres unmarked)	cell migration	–	53 µM
C[n+]1ccn(CC(O)c2ccccc2)[c]1[Ag-][I] (centres unmarked)	cell growth or viability, MTT	72 h	43.5 µM
Cc1cc(C)c([N+]#[C][Pt-]([Cl])([Cl])=[C](Nc2cccc(CN[C](Nc3c(C(C)C)cccc3C(C)C)=[Au][Cl])c2)Nc2c(C)cc(C)cc2C)c(C)c1	cell growth or viability	–	> 100 µM
CCCCCCCCCCCCCCCOC(=O)/C=C/c1cccc(O)c1	cell viability, MTT	48 h, serum-free medium	1.9 ± 0.1 µg/mL
CCOC(=O)C1=C(COCc2cn(CCN3C(=O)C(=O)c4cc(Cl)ccc43)nn2)N=C2Sc3ccccc3N2C1c1cccc(Cl)c1 (centres unmarked)	cell growth or viability, MTT	–	> 100 µM
CCC(CCC(C)C1CCC2C3CCC4=CC(=O)CCC4(C)C3CCC12C)C(C)C (centres unmarked)	cell growth or viability, resazurin	24 h	195 µg/mL
CCc1ccc(CNC(=O)[C@@H]2CC[C@@H]3CCN(C(=O)Cc4ccccc4)C[C@H](NC(=O)[C@H](C)NC)C(=O)N32)cc1	cell growth or viability	96 h	0.164 µM
COc1cc(OC)c(-c2coc3c(CC=C(C)C)c(OC)cc(O)c3c2=O)cc1OC	cell growth or viability, MTT	24 h	> 100 µM
C[C@@H]1O[C@@H](OC(=O)/C=C/c2ccc(O)cc2)[C@H](OC(=O)/C=C/c2ccc(O)cc2)[C@H](O)[C@H]1O	cell proliferation, MTT	added: HGF	17.7 µM
CC(C)c1cccc(C(C)C)c1N=[C](NCc1cccc(N)c1)[AuH][Cl]	cell growth or viability	–	3.9 µM
N#C[CH2][Pd]1[O]c2ccccc2C=Nc2cccnc2[N]1Cc1ccccc1	cell growth or viability, MTT	48 h	25.5 µM
CCOC(=O)c1ccc2c(c1)n(CC)[c]([Au-]([Cl])([Cl])[Cl])[n+]2CC	cell growth or viability, crystal violet	96 h	4.7 µM
Cc1cc(=O)[nH]c(=O)n1CCCCCCOC(=O)C12CCC(C)C(C)C1C1=CCC3C4(C)CCC(O)C(C)(C)C4CCC3(C)C1(C)CC2 (centres unmarked)	cell growth or viability, thymidine uptake	24 h	~10 µM

Repeated from above:
SMILES	assay	setting	IC50
O=[C]=[Re-2]1(=[C]=O)(=[C]=O)([O]S(=O)(=O)c2ccc3ccccc3c2)[n+]2ccc(-c3ccccc3)c3ccc4c(-c5ccccc5)cc[n+]1c4c32	cell growth or viability, resazurin	72 h	1.08 µM
CCOC(=O)c1ccc2c(c1)n(CC)[c]([Au-]([Cl])([Cl])[Cl])[n+]2CC	cell growth or viability, crystal violet	96 h	4.7 µM
CC(C)Cc1ccc(C(C)C(=O)[O][Re-2]2(=[C]=O)(=[C]=O)(=[C]=O)[n+]3ccc(-c4ccccc4)c4ccc5c(-c6ccccc6)cc[n+]2c5c43)cc1 (racemic)	cell growth or viability, resazurin	72 h	1.06 µM
COC(=O)C1CCCN1C(=O)C(Cc1ccccc1)N(C)C(=O)CC(O)C(CC(C)C)NC(=O)C(CC(C)C)N(C)C(=O)C(CC(C)C)NC(=O)C(O)C(C)C (centres unmarked)	cell growth or viability, MTT	48 h	40 µM
COc1ccc(/C(=C(/CCn2cc(CN3C(=O)C(=O)c4ccccc43)nn2)c2ccccc2)c2ccccc2)cc1	cell growth or viability, MTT	–	52.3 µM
C#CCOC(=O)C(CC)C1CCC(C)C(C(C)C(O)C(C)C(=O)C(CC)C2OC3(C=CC(O)C4(CCC(C)(C5CCC(O)(CC)C(C)O5)O4)O3)C(C)CC2C)O1 (centres unmarked)	cell growth or viability, MTT	72 h	> 10 µM
Cc1cc(=O)[nH]c(=O)n1CCCCCCOC(=O)C12CCC(C)C(C)C1C1=CCC3C4(C)CCC(O)C(C)(C)C4CCC3(C)C1(C)CC2 (centres unmarked)	cell growth or viability, thymidine uptake	24 h	~10 µM
C[C@@H]1O[C@@H](OC(=O)/C=C/c2ccc(O)cc2)[C@H](OC(=O)/C=C/c2ccc(O)cc2)[C@H](O)[C@H]1O	cell proliferation, MTT	added: HGF	17.7 µM
COc1ccccc1/C=N/NC(=O)c1cc2cc(Nc3nccc(-c4cccnc4)n3)ccc2[nH]1	cell growth or viability, MTT	48 h	8.88 µM
COc1ccc(/C=C/C(=O)/C=C/c2cn(-c3ccccc3)nc2C(=O)O)cc1OC	cell growth	72 h	19.3 ± 2.61 µM
